Experimental data pooled from the literature.
Every numbered part comes from another study and shows a few of its results, in no order.

Study 1
Target: Sal-like protein 4, full length isoform B (SALL4, Homo sapiens, UniProt Q9UJQ4-2, residues 1-616)
Technique: universal PBM
Molecule type: double-stranded DNA, one strand shown
Medium: in vitro
Concentration: not given
Notes: 8-mer, flanks averaged, mean of replicates
Direction: higher = stronger binding
Residues (chain): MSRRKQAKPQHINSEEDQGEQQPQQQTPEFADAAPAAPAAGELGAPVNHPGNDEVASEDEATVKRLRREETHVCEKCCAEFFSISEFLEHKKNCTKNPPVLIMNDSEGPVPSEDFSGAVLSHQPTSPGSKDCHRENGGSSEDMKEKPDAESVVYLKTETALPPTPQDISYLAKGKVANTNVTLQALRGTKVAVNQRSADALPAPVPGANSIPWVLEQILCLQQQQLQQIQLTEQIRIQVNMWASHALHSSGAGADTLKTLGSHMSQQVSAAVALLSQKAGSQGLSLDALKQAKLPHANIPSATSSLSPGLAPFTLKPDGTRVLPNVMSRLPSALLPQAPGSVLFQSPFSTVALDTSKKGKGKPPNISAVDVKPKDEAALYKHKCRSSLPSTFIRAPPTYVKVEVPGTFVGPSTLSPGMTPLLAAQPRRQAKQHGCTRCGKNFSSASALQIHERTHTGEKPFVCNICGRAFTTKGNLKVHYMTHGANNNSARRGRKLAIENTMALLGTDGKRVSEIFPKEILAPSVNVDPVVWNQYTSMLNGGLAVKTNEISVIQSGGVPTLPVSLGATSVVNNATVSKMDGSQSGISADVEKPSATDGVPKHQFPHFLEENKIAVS
Sequence	E-score
GGCAGGGA	-0.139
CCAGATCC	-0.371
ATTTGAAG	0.165
CATCGTCG	-0.201
CCTCATCA	0.0543
AGGCTGGC	-0.286
ACGACCCC	-0.209
ATTTGAGC	0.0754
CTATCTAC	0.0649
CAACTAAC	0.011
AGCCGTTC	-0.331
AGGTGCAA	-0.00863
AAGTTGCA	0.0609
CAAACCCC	-0.0167
GCGCTTCC	-0.175
GAGGGGGA	-0.223
AGGGACCG	-0.3
AAGATCGC	-0.0882
AGAGGGCT	-0.223
AGAATTCC	-0.0258
AAGCGAAC	-0.128
AGCGGCTG	-0.217
ATATGCAT	0.332
GACCAGCA	-0.244
GGCCAAGA	-0.195

Study 2
Target: RNA binding protein fox-1 homolog 2, RRM domain, GST-SBP tag (RBFOX2, Homo sapiens, UniProt O43251-10, residues 100-194)
Technique: RNA Bind-n-Seq
Molecule type: RNA
Medium: in vitro
Concentration: 365 nM
Notes: natural RNA segment, single round, ends assumed
Baseline: no-protein control
Direction: higher = stronger binding
Shared flanks, not repeated: GGGAGUUCUACAGUCCGACGAUC … UGGAAUUCUCGGGUGCCAA
Target sequence (chain): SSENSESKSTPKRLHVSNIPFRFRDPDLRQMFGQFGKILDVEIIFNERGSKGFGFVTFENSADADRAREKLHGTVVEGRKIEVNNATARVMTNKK
Sequence	RBNS enrichment (R)
GAUUGAACAUAAUCCUCUUGGGACUUCACGUUCUCAUUAUUUGUAUGUCUCCGGGGUCACGCAGAGCCGUCAGCCACCACCCCAGCACCCGGCACAUAGGCGUCUCAUAA	0.655
CCCAUCGCCACCACCUUUUCCCAGGUUUAUUGAGGUAUGAUUGACAUCCAGUAAAAUUCACCCUUUGGAAAUAUACAGCUCUGUGAAUUUUGACAAAUUUAGUGUCUUGU	0.563
CUCGAUCACCCGUGUAUUCUUUGACCAGUAAAUGACCACACCUCAAUGAUGGUAAAACAGCAUCAUCAGUAAGCUAUCUUAUAUGCCUCAUCCUGUGAGUUUGAGCUUCA	0.311
CUUGAAAGUUUUCAGAACCUCUUCCCCAGAAAGGAGACUAGAUUGCCUUUGUUUUGAUGUUUGUGGCCUCAGAAUUGAUCAUUUUCCCCCCACUCUCCCCACACUAACCU	0.552
AGCACAGGUGCCCAAGUCAGAGAGCUGAAAGCCAUCACCCAAUGACUGCCCCUUCAUUCGGGUCUCUAACAGCUCUCCAAGCUGGGUCAGCCACCACUGUGCUCGCUCCA	0.501
UUUGUGCCAACACACGGAGUCAUUCUGGCUCUCUGCUGAGGCCCCUGUUUUCUGGCAGGUGCCCUCCUUGGAAACUGGUUUUGGCUCUGAUCAGCGGUUCUUUUUGCAGC	0.268
CACUUUUAUCAGUUUAGUAGUAGUACUGAGAAAAAUCCCUUCAGCUCUAAGAACACUGAAAAAUCCACCGAUUUUUUGGGUAAGCUUCUUGGCAAUACCCUGUGGAUCUG	0.281
CUCUGCGCUGAAGGUGCUGGGGUCAGGUGAAGGGAGCAGUGACAGGACACAGCACAGGUGCUGCUGGCUCUGGGGACGAGAUGGAGGUGCUGGAGGUAGUGUGUGGGGAG	1.03

Study 3
Target: Interferon regulatory factor 5, full length, phosphomimetic (IRF5, Homo sapiens, UniProt Q13568-2, residues 1-514, S451D/S453D/S456D/S462D)
Technique: protein-binding microarray
Molecule type: double-stranded DNA, one strand shown
Medium: in vitro
Concentration: 940 nM top
Notes: 60-bp whole probe
With: salmon DNA 0.4 mg/ml
Baseline: random background probes
Direction: higher = stronger binding
Shared flanks, not repeated: GCCTAGCAC … GTCTTGATTCGCTTGACGCTGCTG
Sequence	fitted relative affinity
GACGGACTGGGGATTGGGGACGTGCTA	-0.3 z-score
TTTGCTTTCCTTCTTGAACTGTGCTAG	1.18 z-score
TCAATTCTCAGCCCTGCGACTGTGCTA	0.305 z-score
TTAGGTTTCGACTAACGGTTAGTGCTA	10.3 z-score
TCAACTCTGTCCCTCTGACTGTGCTAG	0.44 z-score
TTAGGTTTCCTTGCCCTTTAGTGCTAG	1.37 z-score
GACAGTTTCCTTTTCCTGACGTGCTAG	3.43 z-score
TTAGGTTTCGGTCTAGGTTAGTGCTAG	15.5 z-score
TTTTTTGTATTTTTGATAGAGTGCTAG	1.09 z-score
GATTTTTTTCATATATATATGTGCTAG	1.14 z-score
TTAGGTCTCGGACTCGGTTAGTGCTAG	1.01 z-score
GACGGTTTCGGTCACGGGACGTGCTAG	12.8 z-score
TTAGAATTCAGTTCCGATTAGTGCTAG	1.3 z-score
TTGATTGTGGCTTTTTAATGGTGCTAG	0.0069 z-score
CTTGCTTTGTGCCTAGCCTTGTGCTAG	-0.54 z-score
TTAGGTCGCGGTATCGGTTAGTGCTAG	4 z-score
TCATGTATGGATGTGTCACTGTGCTAG	0.147 z-score

Study 4
Target: Histone acetyltransferase KAT6A, winged helix 1, GST fusion (KAT6A, Homo sapiens, UniProt Q92794, residues 1-85)
Technique: protein binding microarray
Molecule type: double-stranded DNA, one strand shown
Medium: in vitro
Concentration: not given
Notes: 8-mer, flanks averaged, mean of 2 arrays, mostly near background
Baseline: not given
Direction: higher = stronger binding
Construct (chain): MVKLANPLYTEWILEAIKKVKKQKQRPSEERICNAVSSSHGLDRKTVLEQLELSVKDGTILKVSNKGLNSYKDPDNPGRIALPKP
Sequence	E-score
ATTGCATA	-0.107
CTTACGGC	0.397
GATTATGC	-0.0945
TCAGGAAA	-0.163
GCTCAGGA	-0.141
TAGAAGCA	-0.314
AGAAGTGA	-0.137
GCACTTAA	-0.137
CCTTCTAA	-0.28
GCGGCCGA	0.432
CCCAATCG	-0.059
AAAATACG	-0.0446
AGTAGATG	-0.108
CACTTAGA	-0.13
AATGCGCT	0.231
ATCCCTGC	-0.0738
GAGCCATC	-0.254
TACTACCA	-0.135
GGGACCTA	0.151
ACTGGGAC	-0.151
AACAGTCT	-0.0822

Repeated from above (study 4):
Sequence	E-score
AGTAGATG	-0.108
CACTTAGA	-0.13
AATGCGCT	0.231
ATCCCTGC	-0.0738
GAGCCATC	-0.254
